{"data": "Published values pooled from the literature", "note": "Protocols differ between the studies behind these lines. Numbers after ± are the reported error."}
{"Compound": "CN1CCN(CCN2CCCN(c3ccc(Oc4ccc(F)cc4F)c(-c4cn(C)c(=O)c5[nH]ccc45)c3)S2(=O)=O)CC1", "cell line": "Light II cells", "observed": "GLI reporter gene", "action": "inhibitor", "notes": "Hedgehog pathway", "IC50": "0.0394 ± 0.00476 µM"}
{"Compound": "CC(=O)Oc1ccccc1C(=O)[O][Pt]([NH2])([NH2])([Cl])([Cl])[O]C(=O)C(Cl)Cl", "cell line": "PSN1 3D spheroids", "IC50": "3.73 ± 0.35 µM"}
{"Compound": "C[O][Pt-2]1([Cl])([Cl])([O]C(=O)CCC(=O)OCCO)[NH2+]CC[N+]1(C)C", "cell line": "CH1", "observed": "cell growth or viability", "method": "MTT", "time": "96 h", "IC50": "2.5 µM"}
{"Compound": "COC(=O)[C@H]1[C@H]2C[C@H]3O[C@@]4(CCN3C[C@H]2C[C@@H](OC(=O)c2cc(OC)c(OC)c(OC)c2)[C@@H]1OC)C(=O)Nc1cc(OC)c(-c2ccc(C)cc2)cc14", "cell line": "CAPAN-1", "observed": "cell growth or viability", "method": "crystal violet", "time": "72 h", "IC50": "22.2 µM"}
{"Compound": "CN1CCCC1CCO/N=C1/C=C2CCC3C(CC[C@]4(C)/C(=C/c5ccccn5)CCC34)[C@@]2(C)CC1 (stereo partly drawn)", "cell line": "G-361", "observed": "cell growth or viability", "method": "resazurin", "time": "72 h", "IC50": "13.6 µM"}
{"Compound": "O=[N+]([O-])C(=C\\Nc1ccccc1O)/C=N/c1ccccc1O", "cell line": "LDR", "observed": "cell viability", "method": "MTS", "time": "4 days", "IC50": "44 µM"}
{"Compound": "C=C(CC)C(=O)c1ccc(OCC(=O)NCCNC(=O)COc2ccc(C(=O)C(=C)CC)c(Cl)c2Cl)c(Cl)c1Cl", "cell line": "CoC1", "observed": "cell growth or viability", "method": "CCK-8", "time": "72 h", "IC50": "~1.2 µM"}
{"Compound": "CO[C@@H]1[C@@H](O[C@@H]2O[C@H](C)[C@@H](O[C@H]3C[C@@](C)(O)[C@@H](OC(=O)Nc4ccc(C(F)(F)F)cc4)[C@H](C)O3)[C@H](N(C)C)[C@H]2O)[C@@H](CC=O)C[C@@H](C)[C@@H](O[C@H]2CC[C@H](N(C)C)[C@@H](C)O2)/C=C/C=C/C[C@@H](C)OC(=O)C[C@H]1O", "cell line": "HGC-27", "observed": "cell growth or viability", "method": "CCK-8", "time": "72 h", "IC50": "1.76 µM"}
{"Compound": "NS(=O)(=O)c1ccc(/N=N/c2ccc(O)nc2O)cc1", "cell line": "LNCaP", "observed": "cell growth", "time": "72 h", "IC50": "no inhibition"}
{"Compound": "CC1(C)CCC(CN2CCN(c3ccc(C(=O)NS(=O)(=O)c4ccc(NCC5COCCO5)c([N+](=O)[O-])c4)c(N4CCCOc5nc6[nH]ccc6cc54)c3)CC2)=C(c2ccc(Cl)cc2)C1 (stereo not drawn)", "cell line": "primary human CLL cells, treatment-naive", "observed": "apoptosis", "method": "TMRM and annexin V", "time": "18 h", "IC50": "5.6e-05 µM"}
{"Compound": "CCCCC(CC)CNC(=N)NC(=N)NCCCCNC(=N)NC(=N)NCC(CC)CCCC (stereo not drawn)", "cell line": "NCI-H1299", "observed": "cell growth or viability", "method": "SRB", "time": "72 h", "IC50": "2 µM"}
{"Compound": "NC(=S)c1ccc(O)cc1", "cell line": "K562/Adr", "observed": "cell growth or viability", "method": "CCK-8", "time": "72 h", "IC50": "> 200 µM"}
{"Compound": "CO[C@@H]1[C@@H](O[C@@H]2O[C@H](C)[C@@H](O[C@H]3C[C@@](C)(O)[C@@H](OC(=O)c4ccccc4)[C@H](C)O3)[C@H](N(C)C)[C@H]2O)[C@@H](CC=O)C[C@@H](C)[C@@H](O[C@H]2CC[C@H](N(C)C)[C@@H](C)O2)/C=C/C=C/C[C@@H](C)OC(=O)C[C@H]1O", "cell line": "HGC-27", "observed": "cell growth or viability", "method": "CCK-8", "time": "72 h", "IC50": "5.31 µM"}
{"Compound": "Nc1ccc(C(=O)NN=Cc2ccc(OCC(=O)Nc3ccc(Cl)cc3)cc2)cc1", "cell line": "WISH", "observed": "cell viability", "method": "MTT", "time": "24 h", "IC50": "25.9 ± 0.6 µg/mL"}
{"Compound": "N=C(N/N=C/c1ccccn1)N/N=C/c1ccccn1", "cell line": "IMR-90", "observed": "cell growth or viability", "method": "crystal violet", "time": "72 h", "IC50": "95 µM"}
{"Compound": "Cc1cc(CN2CCN(c3c(Br)cnc4[nH]c(-c5ccc(N6CCN(C)CC6)cc5)nc34)CC2)no1", "cell line": "MOLM-13 resistant cells", "time": "72 h", "IC50": "0.08 µM"}
{"Compound": "COc1ccc2c(C)nc(Nc3nc(O)cc(-c4ccccc4)n3)nc2c1", "cell line": "HCC4017", "observed": "cell growth or viability", "method": "MTS", "time": "96 h", "IC50": "4.5 µM"}
{"Compound": "CN(C)c1cc[n+](CCCCC[n+]2ccc(N(C)C)cc2)cc1", "cell line": "3T3-L1", "observed": "cell viability", "method": "MTT", "time": "72 h", "IC50": "> 100 µM"}
{"note": "Repeated from above:"}
{"Compound": "CO[C@@H]1[C@@H](O[C@@H]2O[C@H](C)[C@@H](O[C@H]3C[C@@](C)(O)[C@@H](OC(=O)Nc4ccc(C(F)(F)F)cc4)[C@H](C)O3)[C@H](N(C)C)[C@H]2O)[C@@H](CC=O)C[C@@H](C)[C@@H](O[C@H]2CC[C@H](N(C)C)[C@@H](C)O2)/C=C/C=C/C[C@@H](C)OC(=O)C[C@H]1O", "cell line": "HGC-27", "observed": "cell growth or viability", "method": "CCK-8", "time": "72 h", "IC50": "1.76 µM"}
{"Compound": "NS(=O)(=O)c1ccc(/N=N/c2ccc(O)nc2O)cc1", "cell line": "LNCaP", "observed": "cell growth", "time": "72 h", "IC50": "no inhibition"}
